Experimental data of several laboratories.
Each line is one published result; not all experiments were run side by side. ± marks the error that the study gave.
Organism: Plasmodium falciparum

| SMILES | observed | method | cell line | strain | medium | time | EC50 [nM] |
| --- | --- | --- | --- | --- | --- | --- | --- |
| COCC(=O)N1CCC[C@H](C(=O)NCc2nc(-c3ccc(-c4cccnc4)cc3)cs2)C1 | – | SYBR Green growth | asexual blood-stage parasites | 3D7 | – | 72 h | 26 ± 7.4 |
| CNC(=O)[C@H](C)NC(=O)c1[nH]cc(Cc2ccc(C(F)(F)F)nc2)c1C | parasite growth | – | – | 3D7 | – | – | 8900 |
| N#Cc1ccc(-c2csc(CNC(=O)C3CN(C(=O)COCCF)CC(F)(F)C3)n2)cc1 (racemic) | parasite growth | SYBR Green | – | 3D7 | asexual blood stage | 72 h | 8.5 ± 2.1 |
| COc1ccc(NC(=O)N2CCCCN3[C@H](CN(C)S(C)(=O)=O)[C@H](c4ccc(C#Cc5ccccc5)cc4)[C@@H]3C2)cc1 | blood-stage growth inhibition | – | – | Dd2 | – | – | 26 |
| CCOCC(=O)N1CCN(C(=O)OC(C)(C)C)C(C(=O)NCc2nc(-c3ccccc3)cs2)C1 (centres unmarked) | – | SYBR Green growth | asexual blood-stage parasites | 3D7 | – | 72 h | > 5000 |
| CCn1cc(-c2nc(C)no2)c(=O)c2cc(F)c(N3CCC(Cc4ccccc4)CC3)cc21 | parasite growth | [3H]hypoxanthine incorporation | – | RF12 | – | 72 h | 1 |
| CCn1cc(C2CC2)c2c([C@H](O)c3cnc(C(F)(F)F)c(Cl)c3)n(C)nc2c1=O | parasite growth | – | – | 3D7 | – | – | 4.6 |
| Cc1cnc(Nc2ccnc3ccc(-c4ccc(S(=O)(=O)N5CCOCC5)cc4)cc23)s1 | parasite growth | SYBR Green | – | D6 | – | – | 100 |
| CCCCN(CCCC)CC(O)c1cc(Cl)cc2c1-c1ccc(Cl)cc1/C2=C/c1ccc(Cl)cc1 (centres unmarked) | gametocyte viability | luciferase | – | stage V gametocytes | – | 48 h | 2380 |
| Cc1nnc(Nc2ccnc3ccc(-c4ccc(S(=O)(=O)N5CCOCC5)cc4)cc23)nc1C | parasite growth | SYBR Green | – | D6 | – | – | 240 |
| CNCC(=O)N1CCC[C@H](C(=O)NCc2nc(-c3ccccc3)cs2)C1 | – | SYBR Green growth | asexual blood-stage parasites | 3D7 | – | 72 h | > 5000 |
| COc1ccc(OCCCO)cc1-c1cn2cc(-c3nnc(NCCCCc4ccccc4)o3)ccc2n1 | parasite growth | LDH colorimetric | – | 3D7 Hyp1-Nluc | – | 72 h | 2620 |
| O=S(=O)(c1ccc(-c2ccc3nccc(Nc4ccc(OCc5cccc(F)c5)cc4)c3c2)cc1)N1CCOCC1 | parasite growth | SYBR Green | – | D6 | – | – | 640 |
| O=C(NCc1nc(-c2ccccc2)cs1)[C@H]1CCCN(C(=O)c2ccccn2)C1 | – | SYBR Green growth | asexual blood-stage parasites | 3D7 | – | 72 h | 2200 ± 310 |
| Cn1nc2c(=O)n(C3CC3)ccc2c1[C@](O)(c1ccc(C(F)(F)F)nc1)C1CC1 | parasite growth | – | – | 3D7 | – | – | 6.31 |
| CCOCCOc1ccnc2ccc(-c3ccc(S(=O)(=O)N4CCOCC4)cc3)cc12 | parasite growth | SYBR Green | – | TM91C235 | – | – | 13000 |
| CC[C@@](N)(c1ccc(C(F)(F)F)c(Cl)c1)c1c2ncn(C3CC3)c(=O)c2nn1C | parasite growth | – | – | 3D7 | – | – | 0.91 |
| O=S(=O)(c1ccc(-c2ccc3ncccc3c2)cc1)N1CCOCC1 | parasite growth | SYBR Green | – | TM91C235 | – | – | > 20000 |
| COCC(=O)N1CCC[C@H]1C(=O)NCc1nc(-c2ccccc2)cs1 | – | SYBR Green growth | asexual blood-stage parasites | 3D7 | – | 72 h | > 5000 |
| O=S(=O)(c1ccc(-c2ccc3nccc(Nc4ncc(Cl)cn4)c3c2)cc1)N1CCOCC1 | parasite growth | SYBR Green | – | D6 | – | – | 1000 |
| COCC(=O)N1CCC[C@H](C(=O)NCc2nc(-c3ccc(-c4ccccn4)cc3)cs2)C1 | – | SYBR Green growth | asexual blood-stage parasites | 3D7 | – | 72 h | 27 ± 5 |
| CCc1nnc(Nc2ccnc3ccc(-c4ccc(S(=O)(=O)N5CCOCC5)cc4)cc23)s1 | parasite growth | SYBR Green | – | TM91C235 | – | – | 1200 |
| CC(=O)Nc1cc(Oc2ccc3nc(Nc4ccc(F)cc4F)n(C)c3c2)ccn1 | parasite growth | SYBR Green I | – | Dd2 | – | 72 h | > 5000 |
